Results gathered from unrelated publications.
Numbered parts are unrelated; each lists some results of a single study. Changes are numbered by the printed parent chain.

Sample 1 — method: DHFR PCA, deep sequencing; sample: yeast; added: (+)-ABA 0.39 µM; reference: wild-type fitted maximum; direction: higher = stronger binding
Target: ABI1, truncated, D143A, DHFR fusion (Arabidopsis thaliana)
Notes: methotrexate growth selection, single substitutions
Parent: PYL1, truncated, DHFR fusion (Arabidopsis thaliana); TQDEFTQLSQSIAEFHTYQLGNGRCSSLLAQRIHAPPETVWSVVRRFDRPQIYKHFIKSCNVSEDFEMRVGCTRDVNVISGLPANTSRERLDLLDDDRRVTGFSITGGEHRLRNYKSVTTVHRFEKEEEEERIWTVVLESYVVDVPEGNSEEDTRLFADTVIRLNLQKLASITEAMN; partner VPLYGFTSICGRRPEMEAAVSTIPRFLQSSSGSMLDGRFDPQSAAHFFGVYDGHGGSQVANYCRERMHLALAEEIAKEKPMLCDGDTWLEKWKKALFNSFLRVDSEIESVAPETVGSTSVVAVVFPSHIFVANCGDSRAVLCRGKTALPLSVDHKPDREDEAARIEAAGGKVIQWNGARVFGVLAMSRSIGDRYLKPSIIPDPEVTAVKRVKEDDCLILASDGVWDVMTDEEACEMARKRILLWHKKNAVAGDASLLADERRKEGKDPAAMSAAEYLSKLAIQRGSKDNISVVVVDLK
Variant	relative binding score [%]
R45C	-9.33
I52R	19.6
Q51I	-15.2
D153S	-13.7
E14F	-19.1
A13G	24.4
A30N	-0.194
N149L	24.5
S27H	20.1
L166C	-3.98
L20K	50.8
G23Y	1.46
D3R	26
T120V	-11.7
T119W	-17.3

Sample 2 — method: RNA Bind-n-Seq; form: RNA; sample: in vitro; concentration: 365 nM; reference: no-protein control; direction: higher = stronger binding
Target: RNA binding protein fox-1 homolog 2, RRM domain, GST-SBP tag (RBFOX2, Homo sapiens, UniProt O43251-10, residues 100-194)
Notes: natural RNA segment, single round, ends assumed
Constant ends, left off below: GGGAGUUCUACAGUCCGACGAUC … UGGAAUUCUCGGGUGCCAA
Residues (chain): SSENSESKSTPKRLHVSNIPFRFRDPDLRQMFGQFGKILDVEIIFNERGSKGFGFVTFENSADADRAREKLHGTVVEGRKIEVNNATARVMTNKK
Oligonucleotide	RBNS enrichment (R)
UAUUCCUAUUCUUUGCCACCUUUUGGGUGUGGUGUCACCAGCCUGUUUAGCCAAGUAGCUUUGGGCAUAGGCUGCCCAAUCUGAGCAAACACCAGUGAGGCUCUAUUGAG	0.299
GGUUAUGUUCUGGGUCUUUGUAAUCGCUGAUCUCUGUAACAGAGCCUCUGUUUAUUUUUGCUUGUUGGAAAUAGGGUUCAACCAUGCAUAGUUAGAAUCACUAUGCAUCU	3.35
AUAAGCCUCAGGCCCUGGGAAACCUCCCGACCCCUGCACCUUCGUUGGAGCCCCUGCAUCCCCUGGGUCCAGCCCCCUCUGCAUUUACACAGAUUUGAGUCAGAACUGGA	0.934
GCUUCUGCCUCUGUUUCCAAGCCCACCCUUUUCCCCUGAGCUCAGGGUUAGGGAUGGGCGCUUUCCUCUCUGGUUGUGAACGAAAGGAAGGAACAUCUUUCUAUGGCUAA	0.311
UCAGCUCCCAGGAUGUGUGGGGAGCUGUCCCUGACUCUGCAGGCCUGAGCGAGUGUGUGAGCAUGCGGGGACAUGGGUGUGUAUGGCACACAUAGGUGCGUGUGUGUCUU	9.47
UGUAGAAUGGCUUUUUCUUUUUCCUCUUAAGAGUUCUAUUCUUCAGGUAGAUAAUUUUUCAAAUGUGAAUUAUCUUUUGUGUCUAUAUUGAUAGCUCUUAAAGGAGUGAA	0.481
CUUGAAAUUGGGGUUUGCUUUAGAGCACAAACAUAAGUCUGUGUUAGGUGGACUUAAAUCCCAACAGGGUCACUUGAUAAUUAUAGCCAUAGAAAUGCAGAUGCAGGUAA	0.393
UUAAGAACAGUCACUCUUGAUUGUUUUACUUUUUAUUUUUAAAUUAAAGAUUGGGAAUGCGUGUGAGAGUAUGCAUAAGCAUGGCAGGAAGAGAGGGGGGAGAGAGAAAG	2.22
CUUUAGACUACACAGGCAAUAAUCAAGUCUGCUGUUUUGGCCUUUCGUAGUAGAAGUGGUUGUAGUGUUUAGAUAUCUGUUUGGUCUUGCUUCUUGUAUUGCAUUUUUUU	2.62
AUCAGAAACUAUUAAAAUUAAGGCUAAGUGGCUAUCGGGGUAAAUAGUGCCAGAUUACUAUUGGUGGCGUUUAAGAUGAAAGCAAGUUCAAAAUUUGUCAUUUUGGGUGU	0.65
CGAAGCCACUGCUCCUGGGAGCACACAAGCUUCUCCCUGGAACAGCUCUUAGGAAAAGAGGCAAACCCACACCCAAAAGUACCUUGUUUUCCUUGGGGAAGAUGCGUGGA	0.23
UAAAGCCCAUCCAGAUUAGUUUAGCUCUGACCACUAAUGGCAGGUCUUAAGGACCUUGUGAUUAGUCAAUCAACAAACCACAACACUUCCUAGGACCUGUUGUACUCCGU	0.241

Sample 3 — method: aptamer microarray, sandwich; form: DNA with 2'F-ANA; sample: in vitro; concentration: 200 nM; added: Cy3 exosite-II aptamer, 400 nM; direction: higher = stronger binding; oligonucleotide: GGTTGGTGTGGTTGG
Target: Prothrombin, mature alpha-thrombin (F2, Homo sapiens, UniProt P00734)
Notes: whole 15-mer aptamer, many near background
Modification	mean fluorescence intensity [a.u.]
2'F-ANA at 1 4 5 10 11 12 13 15	48
2'F-ANA at 4 6 7 8 9 10 11	91.5
2'F-ANA at 1 2 3 4 5 10 11 15	46.5
2'F-ANA at 1 4 7 9 10 11	48.8
2'F-ANA at 2 3 9 12 13	922
2'F-ANA at 2 3 5 9 11 14	71.6
2'F-ANA at 1 14	56.2
2'F-ANA at 3 4 5 6 9 10 11 14	53.7
2'F-ANA at 1 3 4 5 6 9 10 11 12 13 14	68.5
2'F-ANA at 2 3 4 6 7 14	299
2'F-ANA at 1 2 7 8 9 10 11 13	58.3
2'F-ANA at 3 4 6 8 10 11 13 14 15	132
2'F-ANA at 1 2 3 4 9 10 14 15	52.2
2'F-ANA at 1 2 4 6 7 10 11 13 14	47
2'F-ANA at 2 9 11 14	144
2'F-ANA at 1 3 5 6 7 8 11 12 14	53.4
2'F-ANA at 1 2 3 5 10 11 12 13 15	71.1
2'F-ANA at 6 7 11 12 14	196
2'F-ANA at 3 4 7 13	651
2'F-ANA at 1 8 9 10 11 13 14	81.6
2'F-ANA at 1 4 7 8 10 11 14 15	309
2'F-ANA at 2 4 5 8 10 12 13 14 15	49.9
2'F-ANA at 1 2 3 6 7 10 11 14	48.9
2'F-ANA at 3 8 11 12	1280
2'F-ANA at 1 3 5 6 7 9 15	67.2

Other studies, line by line — form: peptide; direction: direction not given
Sequence	tested on	test	system	setting	enrichment score
GAPLKKLFTSTGL	Saccharomyces cerevisiae	peptide binding, yeast competitive growth sequencing	cyclin F-Cln2 fusion	library 1	-0.33
LLRRLQDVANDRG	Cln2 (Saccharomyces cerevisiae)	peptide binding, competitive growth sequencing	Saccharomyces cerevisiae, unfused Cln2 strain	mutational scanning library 2	-1.67
VSRNLRSSLKSSLHTL	Saccharomyces cerevisiae	binding, yeast competitive growth sequencing	cyclin B3-Cln2 fusion strain	peptide tiling library	-2.18

For quick reference, copied from above (sample 3):
Modification	mean fluorescence intensity [a.u.]
2'F-ANA at 3 4 5 6 9 10 11 14	53.7
2'F-ANA at 6 7 11 12 14	196
2'F-ANA at 1 3 5 6 7 9 15	67.2
2'F-ANA at 1 8 9 10 11 13 14	81.6
2'F-ANA at 3 8 11 12	1280
2'F-ANA at 1 2 4 6 7 10 11 13 14	47
2'F-ANA at 1 3 5 6 7 8 11 12 14	53.4
